# Results pooled from the literature.
# A part holds a random share of what one study measured. Several values in a cell are separate wells, animals, samples, runs or records.
# Sequence of UniProt P30291 (whole entry, looked up): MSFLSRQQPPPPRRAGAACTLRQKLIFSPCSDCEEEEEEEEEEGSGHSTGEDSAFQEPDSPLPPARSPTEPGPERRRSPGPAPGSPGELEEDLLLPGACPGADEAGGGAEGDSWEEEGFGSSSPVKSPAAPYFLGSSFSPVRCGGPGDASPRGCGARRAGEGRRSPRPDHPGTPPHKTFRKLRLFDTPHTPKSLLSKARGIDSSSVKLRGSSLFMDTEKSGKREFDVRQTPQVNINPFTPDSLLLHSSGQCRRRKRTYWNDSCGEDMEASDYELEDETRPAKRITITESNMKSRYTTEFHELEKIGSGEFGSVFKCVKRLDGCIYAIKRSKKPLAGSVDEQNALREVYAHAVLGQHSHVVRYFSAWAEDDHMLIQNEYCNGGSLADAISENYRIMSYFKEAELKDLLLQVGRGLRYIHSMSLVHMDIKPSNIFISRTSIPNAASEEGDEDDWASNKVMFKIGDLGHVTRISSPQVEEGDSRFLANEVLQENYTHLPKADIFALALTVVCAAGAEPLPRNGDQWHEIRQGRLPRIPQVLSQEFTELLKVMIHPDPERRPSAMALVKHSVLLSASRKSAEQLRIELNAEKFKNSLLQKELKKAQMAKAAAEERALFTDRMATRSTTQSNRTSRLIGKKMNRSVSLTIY
# Sequence of UniProt O75385 (whole entry, looked up): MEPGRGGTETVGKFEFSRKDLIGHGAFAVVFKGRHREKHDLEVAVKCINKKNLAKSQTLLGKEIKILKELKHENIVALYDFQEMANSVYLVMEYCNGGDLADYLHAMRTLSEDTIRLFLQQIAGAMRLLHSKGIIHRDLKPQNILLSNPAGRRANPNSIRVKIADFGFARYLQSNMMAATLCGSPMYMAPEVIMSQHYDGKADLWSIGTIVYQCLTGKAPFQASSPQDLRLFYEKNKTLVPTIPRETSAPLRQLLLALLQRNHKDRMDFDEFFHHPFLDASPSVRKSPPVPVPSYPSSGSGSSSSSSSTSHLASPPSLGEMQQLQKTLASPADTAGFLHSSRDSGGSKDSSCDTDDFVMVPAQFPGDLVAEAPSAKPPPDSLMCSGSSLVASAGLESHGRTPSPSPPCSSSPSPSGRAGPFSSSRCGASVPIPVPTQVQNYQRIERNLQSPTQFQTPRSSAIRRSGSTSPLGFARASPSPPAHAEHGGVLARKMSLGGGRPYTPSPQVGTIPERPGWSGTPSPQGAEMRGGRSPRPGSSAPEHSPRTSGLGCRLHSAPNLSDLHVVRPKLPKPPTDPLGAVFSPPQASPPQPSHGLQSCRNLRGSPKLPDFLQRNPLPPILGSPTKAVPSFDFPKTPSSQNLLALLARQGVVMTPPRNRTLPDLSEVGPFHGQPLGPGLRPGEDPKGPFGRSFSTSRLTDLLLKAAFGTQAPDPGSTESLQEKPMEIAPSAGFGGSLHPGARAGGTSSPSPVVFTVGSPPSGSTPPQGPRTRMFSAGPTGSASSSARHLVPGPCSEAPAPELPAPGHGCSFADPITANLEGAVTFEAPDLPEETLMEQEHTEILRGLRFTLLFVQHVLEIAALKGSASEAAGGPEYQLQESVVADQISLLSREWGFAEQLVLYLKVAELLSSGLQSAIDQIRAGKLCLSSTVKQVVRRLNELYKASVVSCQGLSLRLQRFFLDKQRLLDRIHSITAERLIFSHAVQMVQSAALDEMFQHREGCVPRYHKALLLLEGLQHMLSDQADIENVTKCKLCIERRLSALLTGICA
# Sequence of UniProt P53778 (whole entry, looked up): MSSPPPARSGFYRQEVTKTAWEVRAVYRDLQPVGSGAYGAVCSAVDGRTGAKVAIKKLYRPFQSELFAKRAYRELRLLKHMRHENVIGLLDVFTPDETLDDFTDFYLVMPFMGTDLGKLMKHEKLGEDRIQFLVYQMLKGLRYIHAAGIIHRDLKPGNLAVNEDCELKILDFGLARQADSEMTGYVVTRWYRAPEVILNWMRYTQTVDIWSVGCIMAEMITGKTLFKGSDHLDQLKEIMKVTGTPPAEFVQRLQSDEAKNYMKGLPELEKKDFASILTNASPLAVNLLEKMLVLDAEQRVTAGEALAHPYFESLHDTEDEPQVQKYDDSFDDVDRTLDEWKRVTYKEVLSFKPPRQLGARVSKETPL
# Sequence of UniProt Q6DT37 (whole entry, looked up): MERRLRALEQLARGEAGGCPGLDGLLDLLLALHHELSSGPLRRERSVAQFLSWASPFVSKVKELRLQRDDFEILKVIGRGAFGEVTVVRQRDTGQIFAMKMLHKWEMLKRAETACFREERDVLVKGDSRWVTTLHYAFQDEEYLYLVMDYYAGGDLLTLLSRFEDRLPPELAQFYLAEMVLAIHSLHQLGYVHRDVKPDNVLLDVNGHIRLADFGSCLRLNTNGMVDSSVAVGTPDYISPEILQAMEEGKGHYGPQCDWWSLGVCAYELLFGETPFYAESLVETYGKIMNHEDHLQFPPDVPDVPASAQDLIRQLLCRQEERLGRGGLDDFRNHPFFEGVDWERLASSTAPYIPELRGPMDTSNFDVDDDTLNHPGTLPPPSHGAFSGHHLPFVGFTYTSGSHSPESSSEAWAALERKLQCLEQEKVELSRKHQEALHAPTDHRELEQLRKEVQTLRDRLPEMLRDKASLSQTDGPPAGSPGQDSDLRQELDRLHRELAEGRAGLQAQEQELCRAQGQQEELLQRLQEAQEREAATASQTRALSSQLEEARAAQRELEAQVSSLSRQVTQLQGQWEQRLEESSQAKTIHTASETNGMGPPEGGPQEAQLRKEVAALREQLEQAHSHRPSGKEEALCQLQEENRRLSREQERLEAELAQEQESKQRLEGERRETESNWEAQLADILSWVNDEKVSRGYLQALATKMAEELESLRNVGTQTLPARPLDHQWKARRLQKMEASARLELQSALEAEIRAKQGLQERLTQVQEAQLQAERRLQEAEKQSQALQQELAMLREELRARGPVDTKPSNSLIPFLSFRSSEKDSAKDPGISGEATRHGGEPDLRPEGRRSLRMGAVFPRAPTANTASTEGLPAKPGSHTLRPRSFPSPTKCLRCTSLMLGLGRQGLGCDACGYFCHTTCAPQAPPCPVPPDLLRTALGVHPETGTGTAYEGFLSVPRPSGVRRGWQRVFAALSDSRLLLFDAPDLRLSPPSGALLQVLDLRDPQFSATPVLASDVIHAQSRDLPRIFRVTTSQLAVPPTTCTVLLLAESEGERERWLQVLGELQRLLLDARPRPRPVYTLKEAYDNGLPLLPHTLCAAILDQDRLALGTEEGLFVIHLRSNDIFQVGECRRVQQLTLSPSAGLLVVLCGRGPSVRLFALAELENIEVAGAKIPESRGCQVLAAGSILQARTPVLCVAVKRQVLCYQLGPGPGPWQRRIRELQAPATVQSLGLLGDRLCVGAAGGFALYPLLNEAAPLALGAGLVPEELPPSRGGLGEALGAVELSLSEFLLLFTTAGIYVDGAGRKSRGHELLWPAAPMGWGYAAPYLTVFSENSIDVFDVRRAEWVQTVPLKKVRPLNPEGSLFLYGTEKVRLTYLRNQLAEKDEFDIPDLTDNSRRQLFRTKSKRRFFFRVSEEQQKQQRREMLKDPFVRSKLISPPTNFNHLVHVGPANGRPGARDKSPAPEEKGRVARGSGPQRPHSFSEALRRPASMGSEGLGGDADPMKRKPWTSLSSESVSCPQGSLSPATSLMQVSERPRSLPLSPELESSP
# Sequence of UniProt Q07002 (whole entry, looked up): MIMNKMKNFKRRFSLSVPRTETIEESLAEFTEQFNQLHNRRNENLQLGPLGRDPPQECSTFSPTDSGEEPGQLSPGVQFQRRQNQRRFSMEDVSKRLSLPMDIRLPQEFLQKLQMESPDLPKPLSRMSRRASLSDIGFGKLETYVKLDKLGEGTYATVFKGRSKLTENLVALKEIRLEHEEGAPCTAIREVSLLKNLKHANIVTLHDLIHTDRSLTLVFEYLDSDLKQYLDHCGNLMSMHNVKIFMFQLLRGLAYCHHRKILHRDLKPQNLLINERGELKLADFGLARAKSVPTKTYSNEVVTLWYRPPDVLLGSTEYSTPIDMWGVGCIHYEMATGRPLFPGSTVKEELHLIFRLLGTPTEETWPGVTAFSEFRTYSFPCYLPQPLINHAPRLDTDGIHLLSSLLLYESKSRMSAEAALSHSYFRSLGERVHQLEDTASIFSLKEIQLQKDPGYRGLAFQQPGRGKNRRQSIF
# Sequence of UniProt P46734 (whole entry, looked up): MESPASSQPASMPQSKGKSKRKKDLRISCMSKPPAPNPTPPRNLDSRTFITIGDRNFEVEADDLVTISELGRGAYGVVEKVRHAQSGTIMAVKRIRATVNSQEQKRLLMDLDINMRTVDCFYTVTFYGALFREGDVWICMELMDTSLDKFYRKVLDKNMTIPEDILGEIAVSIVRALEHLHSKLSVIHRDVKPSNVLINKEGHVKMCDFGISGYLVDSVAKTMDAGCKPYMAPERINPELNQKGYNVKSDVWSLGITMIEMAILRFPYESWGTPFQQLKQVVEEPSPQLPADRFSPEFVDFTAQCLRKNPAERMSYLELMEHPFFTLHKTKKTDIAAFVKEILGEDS

# Series 1 — organism: Arabidopsis thaliana; strain: Col-0; tested at: 50 µg/mL; setting: seed germination
SMILES,root length [cm]
CCN1C(=O)C(O)(C(=O)O)Oc2cc(F)ccc21 (stereo not shown),0.683
CCCN1C(=O)C(O)(C(=O)O)Oc2cc(F)ccc21 (stereo not shown),0.41
O=C(O)C1(O)Oc2cc(Cl)ccc2N(Cc2ccccc2)C1=O (stereo not shown),0.622
CN1C(=O)C(O)(C(=O)O)Oc2cc(F)ccc21 (stereo not shown),0.755
O=C(O)C1(O)Oc2cc(Br)ccc2N(Cc2ccccc2)C1=O (stereo not shown),0.528
CC(C)(C)c1ccc(Oc2ccc3c(c2)OC(O)(C(=O)O)C(=O)N3Cc2ccccc2)cc1 (stereo not shown),0.419
Cc1ccc2c(c1)OC(O)(C(=O)O)C(=O)N2Cc1ccccc1 (stereo not shown),0.922
COc1ccc2c(c1)OC(O)(C(=O)O)C(=O)N2Cc1ccccc1 (stereo not shown),0.701

# Series 2 — tested at: 1 µM
# SMILES: CC[C@@]1(c2cccc(-c3c(F)cncc3OC)c2)C2=C(Nc3n[nH]cc31)[C@H](F)C(C)(C)CC2=O (single isomer, unassigned)
target,assay,how to read,remaining binding [%]
"Serine/threonine-protein kinase MRCK gamma (CDC42BPG, Homo sapiens, UniProt Q6DT37)",KINOMEscan,,100
"Dual specificity mitogen-activated protein kinase kinase 3 (MAP2K3, Homo sapiens, UniProt P46734)","binding, competition with immobilised ligand",,87
"Wee1-like protein kinase (WEE1, Homo sapiens, UniProt P30291)","binding, competition with immobilised ligand",,92
"Serine/threonine-protein kinase ULK1 (ULK1, Homo sapiens, UniProt O75385)","kinase binding, KINOMEscan",reference: DMSO control,67
"Mitogen-activated protein kinase 12 (MAPK12, Homo sapiens, UniProt P53778)","kinase binding, KINOMEscan",reference: DMSO control,70
"Phosphatidylinositol 4,5-bisphosphate 3-kinase catalytic subunit alpha isoform (PIK3CA, Homo sapiens, UniProt P42336, E545A)","kinase binding, KINOMEscan",reference: DMSO control,72
"Cyclin-dependent kinase 18 (CDK18, Homo sapiens, UniProt Q07002)","binding, competition with immobilised ligand",,71
"Mitogen-activated protein kinase 1 (MAPK1, Homo sapiens, UniProt P28482)","kinase binding, KINOMEscan",reference: DMSO control,95

# Series 3 — observed: membrane potential; technique: FLIPR membrane potential; cells: CHO-BC cells; tested at: concentration not given; setting: first screen; reference: uninhibited control
# Target: Sodium-dependent neutral amino acid transporter B(0)AT1 (SLC6A19, Homo sapiens, UniProt Q695T7)
# Sequence of UniProt Q695T7 (whole entry, looked up): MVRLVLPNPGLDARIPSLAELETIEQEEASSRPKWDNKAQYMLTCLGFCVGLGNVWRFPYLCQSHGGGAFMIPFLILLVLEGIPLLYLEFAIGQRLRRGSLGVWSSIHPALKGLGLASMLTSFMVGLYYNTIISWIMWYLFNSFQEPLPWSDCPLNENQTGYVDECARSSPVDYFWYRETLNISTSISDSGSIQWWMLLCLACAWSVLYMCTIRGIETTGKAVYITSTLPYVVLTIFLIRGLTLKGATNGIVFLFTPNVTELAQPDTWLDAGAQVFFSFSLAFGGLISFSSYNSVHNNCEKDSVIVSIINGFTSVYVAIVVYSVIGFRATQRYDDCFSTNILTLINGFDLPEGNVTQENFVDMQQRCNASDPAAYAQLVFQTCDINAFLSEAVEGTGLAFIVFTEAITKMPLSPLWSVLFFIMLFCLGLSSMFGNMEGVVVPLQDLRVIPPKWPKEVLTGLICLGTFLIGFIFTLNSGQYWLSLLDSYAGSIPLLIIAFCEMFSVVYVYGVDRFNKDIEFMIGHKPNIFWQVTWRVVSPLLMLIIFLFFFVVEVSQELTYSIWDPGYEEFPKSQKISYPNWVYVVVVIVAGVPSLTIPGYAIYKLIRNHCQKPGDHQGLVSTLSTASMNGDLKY
Structure (SMILES),normalised transport activity
CCCCCCNC(=O)COc1cc(C)c(Cl)c(C)c1,0.988 and 1.1 and 1.03 and 0.959
CCNC(=O)COc1cc(C)c(Cl)c(C)c1,0.56 and 0.518 and 0.465 and 0.5
Cc1cc(OCC(=O)NC(C)C)cc(C)c1Cl,0.666 and 0.779 and 0.683 and 0.643
Cc1cc(OCC(=O)SC(C)C)cc(C)c1Cl,1.27 and 1.15 and 1.1 and 1.01 and 1.23
CCCCCCCCNC(=O)COc1cc(C)c(Cl)c(C)c1,1.19 and 1.04 and 0.872 and 1.1
Cc1cc(OCC(=O)NCCc2ccccc2)cc(C)c1Cl,1.01 and 0.868 and 0.984 and 0.924
CCCNC(=O)COc1cc(C)c(Cl)c(C)c1,0.635 and 0.479 and 0.558 and 0.555 and 0.52
CON(C)C(=O)COc1cc(C)c(Cl)c(C)c1,1.01 and 1.03 and 1.12 and 1.1 and 1.08

# Single results of other studies
Structure (SMILES),test system,setting,quantity,result
Cn1cc(-c2cccc(CN3CCC4(CC3)COc3c4ccc4c3CN([C@H]3CCC(=O)NC3=O)C4=O)c2)cn1,cynomolgus monkey,"intravenous, 1 mg/kg",clearance,20.7 mL/min/kg and 19.3 mL/min/kg and 14.2 mL/min/kg
